# Published values pooled from the literature.
# Protocols differ between the studies behind these lines. ± gives the spread as reported.
Compound,target,assay,test system,setting,measurement,result
CCC(=O)NCCCCNC(=O)NCc1ccc(CNC(=O)[C@@H](CCCNC(=N)N)NC(=O)C(c2ccccc2)c2ccccc2)cc1,"Neuropeptide Y receptor type 1 (NPY1R, Homo sapiens, UniProt P25929, T280A)",antagonist,human cells,,Kb,0.0943 µM
CN[C@@H](C)C(=O)N[C@H]1CN(C(=O)Cc2ccccc2)CC[C@H]2CC[C@@H](C(=O)NCc3ccc(C(C)C)cc3)N2C1=O,"Baculoviral IAP repeat-containing protein 3, BIR3 (BIRC3, Homo sapiens, UniProt Q13489)","ligand displacement, FP",,,Ki,0.157 µM
CN1CCN(CC(=O)N2N=C3/C(=C/c4ccccc4)CCCC3C2c2ccccc2)CC1 (mixture of isomers),"Polyunsaturated fatty acid lipoxygenase ALOX15 (ALOX15, Homo sapiens, UniProt P16050)","enzyme activity, activator",,"pH 7.4, 1% DMSO, stirring, with: arachidonic acid 50 µM",AC50,9.7 µM
CC[C@H](C)[C@H](NC(=O)[C@H](CCCCN)NC(=O)[C@H](CCCCN)NC(=O)[C@@H](NC(=O)[C@H](CCC(=O)O)NC(=O)[C@H](CCC(=O)O)NC(=O)[C@H](CCC(=O)O)NC(=O)[C@H](CO)NC(=O)[C@H](CC(C)C)NC(=O)[C@H](CC(=O)O)NC(=O)[C@H](CC(C)C)NC(=O)CNC(=O)[C@H](CCCNC(=N)N)NC(=O)[C@H](CC(C)C)NC(=O)[C@H](CO)NC(=O)CNC(=O)CNC(=O)CNC(=O)CCCC[C@@H]1SC[C@@H]2NC(=O)N[C@@H]21)C(C)C)C(=O)N[C@@H](CC(C)C)C(=O)N[C@@H](CC(=O)O)C(=O)N[C@@H](CCC(=O)O)C(=O)N[C@@H](C)C(=O)N[C@H](C(=O)N[C@@H](CCCCN)C(=O)N[C@@H](CC(=O)O)C(=O)O)C(C)C,Fab B11 antibody (human),"binding, biolayer interferometry",,with: biotinylated peptide on tips,Kd,0.02 ± 0.001 µM
CCOC(=O)CNC(=O)/N=C(/N)NCCC[C@@H](NC(=O)C(c1ccccc1)c1ccccc1)C(=O)NCc1ccc(O)cc1,"Neuropeptide Y receptor type 1 (NPY1R, Homo sapiens, UniProt P25929, Q120N)",antagonist,human cells,,Kb,0.0001 µM
CN[C@@H](C)C(=O)N[C@H]1CN(C(=O)Cc2ccccc2)CC[C@H]2CC[C@@H](C(=O)NCc3cccc(C(F)(F)F)c3)N2C1=O,"Baculoviral IAP repeat-containing protein 2, BIR3 (BIRC2, Homo sapiens, UniProt Q13490)","ligand displacement, FP",,,Ki,0.032 µM
CC(C)C[C@H](NC(=O)N(CCCNC(=N)N)NC(=O)[C@H](Cc1ccc(O)cc1)NC(=O)CCCCCCC(=O)N[C@@H](Cc1ccc(O)cc1)C(=O)NN(CCCNC(=N)N)C(=O)N[C@@H](CC(C)C)C(=O)N[C@@H](CCCNC(=N)N)C(=O)N[C@@H](Cc1ccc(O)cc1)C(N)=O)C(=O)N[C@@H](CCCNC(=N)N)C(=O)N[C@@H](Cc1ccc(O)cc1)C(N)=O,"Neuropeptide Y receptor type 1 (NPY1R, Homo sapiens, UniProt P25929)","calcium signal, antagonist",,,Kb,0.0115 µM
O=C1CCC(N2C(=O)c3cccc(NCCOCCOCCOCCOCCOCCOCCOCCNCCNc4nonc4/C(=N/O)Nc4ccc(F)c(Br)c4)c3C2=O)C(=O)N1 (stereo not drawn),"Indoleamine 2,3-dioxygenase 1 (IDO1, Homo sapiens, UniProt P14902)","degrader, western blot",HeLa,"24 h, with: IFN-γ 5 ng/mL",DC50,2.84 µM
CCc1cc2c3c(c1CC)O[C@H](CO)[C@H](O)[C@@H]3OC2,"Galectin-9 (LGALS9, Homo sapiens, UniProt O00182)","cell-free assay, FP",,,Kd,~5000 µM
CCC(=O)NCCNC(=O)/N=C(/N)NCCC[C@@H](NC(=O)C(c1ccccc1)c1ccccc1)C(=O)NCc1ccc(O)cc1,"Neuropeptide Y receptor type 1 (NPY1R, Homo sapiens, UniProt P25929, F286A)",antagonist,human cells,,Kb,0.00256 µM
CC#Cc1cc2c3c(c1C#CC)O[C@H](CO)[C@H](O)[C@@H]3OC2,"Galectin-9, N-terminal CRD (LGALS9, Homo sapiens, UniProt O00182)","binding, competitive fluorescence polarization",,"20 °C, galectin-9 N-terminal domain 1.0 µM",Kd,> 2000 µM
CCc1nnc(NS(=O)(=O)c2ccc(NC(=S)NC(=O)/C=C/c3ccc(F)cc3)cc2)s1,"Prostaglandin E2 receptor EP2 subtype (PTGER2, Homo sapiens, UniProt P43116)","cAMP, antagonist, TR-FRET",,,Kb,0.00772 µM

# Excerpt of the above:
Compound,target,assay,test system,setting,measurement,result
CC#Cc1cc2c3c(c1C#CC)O[C@H](CO)[C@H](O)[C@@H]3OC2,"Galectin-9, N-terminal CRD (LGALS9, Homo sapiens, UniProt O00182)","binding, competitive fluorescence polarization",,"20 °C, galectin-9 N-terminal domain 1.0 µM",Kd,> 2000 µM
